# Experimental data pooled from the literature.
# Every numbered part comes from another study and shows a few of its results, in no order.

# Study 1
# Target: Sal-like protein 4, full length isoform A (SALL4, Homo sapiens, UniProt Q9UJQ4, residues 1-1053)
# UniProt Q9UJQ4, sequence (whole entry, looked up): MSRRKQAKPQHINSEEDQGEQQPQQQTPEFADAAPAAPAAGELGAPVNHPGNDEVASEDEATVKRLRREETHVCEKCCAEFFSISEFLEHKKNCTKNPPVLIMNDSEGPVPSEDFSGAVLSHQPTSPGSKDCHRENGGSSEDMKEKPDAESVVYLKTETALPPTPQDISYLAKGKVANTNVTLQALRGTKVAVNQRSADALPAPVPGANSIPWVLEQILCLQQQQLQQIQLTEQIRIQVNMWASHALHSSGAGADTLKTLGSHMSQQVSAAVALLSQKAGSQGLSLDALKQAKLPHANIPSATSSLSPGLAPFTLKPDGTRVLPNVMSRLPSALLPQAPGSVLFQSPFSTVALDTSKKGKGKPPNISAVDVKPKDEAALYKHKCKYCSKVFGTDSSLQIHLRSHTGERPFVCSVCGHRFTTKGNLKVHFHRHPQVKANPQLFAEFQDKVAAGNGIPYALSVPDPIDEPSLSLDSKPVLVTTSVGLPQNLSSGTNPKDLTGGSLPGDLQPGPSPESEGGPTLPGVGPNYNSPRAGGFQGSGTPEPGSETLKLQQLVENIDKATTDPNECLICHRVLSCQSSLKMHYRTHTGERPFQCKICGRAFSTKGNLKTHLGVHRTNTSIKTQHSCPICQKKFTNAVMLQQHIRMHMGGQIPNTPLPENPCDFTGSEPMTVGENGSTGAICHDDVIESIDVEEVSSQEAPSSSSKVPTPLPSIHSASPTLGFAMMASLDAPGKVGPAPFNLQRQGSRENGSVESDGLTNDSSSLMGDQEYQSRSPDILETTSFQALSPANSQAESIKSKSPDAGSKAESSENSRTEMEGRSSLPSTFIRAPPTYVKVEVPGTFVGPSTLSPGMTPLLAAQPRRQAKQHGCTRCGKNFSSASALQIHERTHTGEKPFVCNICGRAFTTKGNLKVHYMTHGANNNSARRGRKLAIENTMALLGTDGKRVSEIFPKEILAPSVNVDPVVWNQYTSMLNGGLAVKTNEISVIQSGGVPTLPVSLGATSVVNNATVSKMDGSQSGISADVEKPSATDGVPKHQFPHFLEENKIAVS
# Method: universal PBM
# Molecule type: double-stranded DNA, one strand shown
# Matrix: in vitro
# Tested at: 600 nM
# Notes: 8-mer, flanks averaged, mean of replicates
# Reading: higher = stronger binding
Strand,E-score
CATTTTGC,0.173
TCATTCCA,0.105
TCTGTCAA,0.13
ATAGAGTA,0.263
CTTCGAAG,-0.0594

# Study 2
# Target: Histone acetyltransferase KAT6A, winged helix 1, GST fusion (KAT6A, Homo sapiens, UniProt Q92794, residues 1-85)
# Method: protein binding microarray
# Molecule type: double-stranded DNA, one strand shown
# Matrix: in vitro
# Tested at: not given
# Notes: 8-mer, flanks averaged, mean of 2 arrays, mostly near background
# Relative to: not given
# Reading: higher = stronger binding
# Target sequence (chain): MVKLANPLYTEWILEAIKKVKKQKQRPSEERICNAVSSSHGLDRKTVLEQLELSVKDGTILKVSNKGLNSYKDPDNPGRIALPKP
Strand,E-score
ACCATGAT,-0.102
CCACGCAG,0.0655
CAGGTCAA,-0.219
GTAGACGA,-0.142

# Study 3
# Target: RNA binding protein fox-1 homolog 2, RRM domain, GST-SBP tag (RBFOX2, Homo sapiens, UniProt O43251-10, residues 100-194)
# Method: RNA Bind-n-Seq
# Molecule type: RNA
# Matrix: in vitro
# Tested at: 365 nM
# Notes: natural RNA segment, single round, ends assumed
# Relative to: no-protein control
# Reading: higher = stronger binding
# All sequences stand within: GGGAGUUCUACAGUCCGACGAUC … UGGAAUUCUCGGGUGCCAA
# Construct (chain): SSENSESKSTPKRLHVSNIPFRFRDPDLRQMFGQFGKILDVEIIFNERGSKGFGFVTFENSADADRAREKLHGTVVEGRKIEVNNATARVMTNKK
Strand,RBNS enrichment (R)
UUAGAAUCUUUACCAAAGAUCUGGAGUUAGGGUAGCCUUUCUAUUUUAGUACUGAACUCCUGUGCCCUUCUUUUUUAAAAAGGUCUUCCCUCAUUUUGUAUAUUUAGCCA,1.06
UUGAAAAAUCGAAGAAGCUUGGGAAAAAGUCUGAUUGAGCACCCCCACUCGACGCCUUCCUCAACUGCAGCUGGCCACUAACACUGCUUCUGGGGACUUGGCUGCCAAGU,0.384
CAUAAAGCACACACUUAGUGCCCUGGAGCAAGUCCAUGACUCCACAUGACCUUGGAAGCUUUCUUCUCUCCAGAACAUUUGGAAAGGGGUAGAAGACCAUAUGGCUUACU,0.278
UGUGAGAAUGCAGUAAGGGGGCUGCCAGCUCUCUUCUCCCUCAGACCAUUGUCUCCCCGCUGAACUCGGCUGCCUUGCCACCGAGGUGCCAGCCAGGCUAGAGGAGUGCC,0.739
UAGCAUCUGUGUGUAUUAAUUCUGAAGAAUUAAAUGUUUAAAUUAGAGUUUAAAUGUUGACGGCGUUUGCUAUGUAUAAUUGCCCCUACACCGUUAUAAAGUGUUUUCAG,0.397
GACUGCUAUUCUAAGAGCAUCAGGGCUCUGAGGGCCAAAGAAGCAAUGGGAGUCCUGAGCUAGUAUAGCUGUGUCACUUAUUAUAAAAGCAUAACUGUUUUUUAUUUGGA,0.309
AGAACCUUAGUGAAAGGUUCUCAGUCUCUGAGAGUGGACCCUAAUUAACAUAAAGACCAUUCAUCAGCGAAUAACUACUGAGCAACUCUAGUGUGCCAGCACAGGCCAGA,0.326

# Mixed results
Substance,target,test,system,conditions,scale,endpoint,value
"PhoQ, residues 284 288 289 292 302 303 SLKLQV","PhoP, residues 12 14 15 18 19 SGWQI (Escherichia coli, UniProt P23836)","Sort-seq, refers to: YFP reporter",E. coli,"PhoQ-PhoP variant library, added: 10 µM Mg2+","relative to: high Mg2+ state, higher = stronger signaling",fold induction,15.5
